Published values collected from several papers.
A part holds a random share of what one study measured.

Set 1
Target: Histone acetyltransferase KAT6A, both winged helices, GST fusion (KAT6A, Homo sapiens, UniProt Q92794, residues 1-181)
Method: protein binding microarray
Molecule type: double-stranded DNA, one strand shown
Matrix: in vitro
Concentration: not given
Setting: 8-mer, flanks averaged, mean of 2 arrays, mostly near background
Reference: not given
Direction: higher = stronger binding
Residues (chain): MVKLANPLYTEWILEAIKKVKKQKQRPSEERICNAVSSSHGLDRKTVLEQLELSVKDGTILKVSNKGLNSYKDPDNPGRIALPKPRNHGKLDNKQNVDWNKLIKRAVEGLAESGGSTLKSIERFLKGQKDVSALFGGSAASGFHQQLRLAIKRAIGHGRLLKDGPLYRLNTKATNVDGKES
Sequence | E-score
CTCCGGGA | 0.0715
AAAGTCCA | -0.123
AGGGGCTC | -0.224
AGGTCATC | 0.0629
CAGTTTGC | 0.0812
TCGAATCA | -0.17
ACTATCAA | 0.00979

Set 2
Target: Phosphate system positive regulatory protein PHO4, full length, GST-tagged (PHO4, Saccharomyces cerevisiae, UniProt P07270, residues 1-312)
UniProt P07270, sequence (whole entry, looked up): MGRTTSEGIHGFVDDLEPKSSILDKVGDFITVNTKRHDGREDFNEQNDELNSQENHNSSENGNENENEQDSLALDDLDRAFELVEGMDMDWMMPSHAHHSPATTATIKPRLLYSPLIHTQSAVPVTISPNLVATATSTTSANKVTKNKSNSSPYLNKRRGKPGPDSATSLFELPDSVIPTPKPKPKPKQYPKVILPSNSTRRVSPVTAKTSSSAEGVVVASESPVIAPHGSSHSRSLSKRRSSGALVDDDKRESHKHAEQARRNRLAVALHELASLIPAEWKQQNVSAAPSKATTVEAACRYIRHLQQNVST
Method: competition protein-binding microarray
Molecule type: double-stranded DNA, one strand shown
Matrix: in vitro
Concentration: 2 µM
Setting: whole 60-bp probe, lowest competitor level
With: Cbf1 competitor, 0.05 µM
Direction: higher = stronger binding
Sequence | fluorescence intensity
CGGGGTTAAGTTTGATTGGTGGGTGGCTTGCAGCAGGTCTTGATTCGCTTGACGCTGCTG | 4700 a.u.
CAGCGGATTCCCGAGCACATGGAGTCGCTGAACGACGTCTTGATTCGCTTGACGCTGCTG | 10400 a.u.
GCTCTAGTAATTGTCTACGTGCCGAATCGTTTCTCTGTCTTGATTCGCTTGACGCTGCTG | 7130 a.u.
GGAACCGTCTGCAGCGATGTGACGGGTCTTGTAACCGTCTTGATTCGCTTGACGCTGCTG | 3400 a.u.

Set 3
Target: Interferon regulatory factor 5, full length, phosphomimetic (IRF5, Homo sapiens, UniProt Q13568-2, residues 1-514, S451D/S453D/S456D/S462D)
Method: protein-binding microarray
Molecule type: double-stranded DNA, one strand shown
Matrix: in vitro
Concentration: 940 nM top
Setting: 60-bp whole probe
With: salmon DNA 0.4 mg/ml
Reference: random background probes
Direction: higher = stronger binding
Sequence | fitted relative affinity [z-score]
GCCTAGCACGACGGGCTGCTTATCCTGACGTGCTAGGTCTTGATTCGCTTGACGCTGCTG | -0.44
GCCTAGCACTCACGTCTCCACCTGGGACTGTGCTAGGTCTTGATTCGCTTGACGCTGCTG | 0.116
GCCTAGCACGACGGGCTGGACTTTCGGGACGTGCTAGTCTTGATTCGCTTGACGCTGCTG | 0.291
GCCTAGCACTTAGAGCTGAGTCTCGATTAGTGCTAGGTCTTGATTCGCTTGACGCTGCTG | 2.25

Mixed results
Substance | target | test | system | conditions | scale | endpoint | result
PhoQ, residues 284 288 289 292 302 303 AMDMFI | PhoP, residues 12 14 15 18 19 STWGI (Escherichia coli, UniProt P23836) | Sort-seq, refers to: YFP reporter | E. coli | PhoQ-PhoP variant library, with: 10 µM Mg2+ | reference: high Mg2+ state, higher = stronger signaling | fold induction | 0.992

For quick reference, copied from above (set 1):
Sequence | E-score
AGGTCATC | 0.0629
CAGTTTGC | 0.0812
TCGAATCA | -0.17
